Published values pooled from the literature.
A part holds a random share of what one study measured.
Chain of UniProt Q8TD08 (whole entry, looked up): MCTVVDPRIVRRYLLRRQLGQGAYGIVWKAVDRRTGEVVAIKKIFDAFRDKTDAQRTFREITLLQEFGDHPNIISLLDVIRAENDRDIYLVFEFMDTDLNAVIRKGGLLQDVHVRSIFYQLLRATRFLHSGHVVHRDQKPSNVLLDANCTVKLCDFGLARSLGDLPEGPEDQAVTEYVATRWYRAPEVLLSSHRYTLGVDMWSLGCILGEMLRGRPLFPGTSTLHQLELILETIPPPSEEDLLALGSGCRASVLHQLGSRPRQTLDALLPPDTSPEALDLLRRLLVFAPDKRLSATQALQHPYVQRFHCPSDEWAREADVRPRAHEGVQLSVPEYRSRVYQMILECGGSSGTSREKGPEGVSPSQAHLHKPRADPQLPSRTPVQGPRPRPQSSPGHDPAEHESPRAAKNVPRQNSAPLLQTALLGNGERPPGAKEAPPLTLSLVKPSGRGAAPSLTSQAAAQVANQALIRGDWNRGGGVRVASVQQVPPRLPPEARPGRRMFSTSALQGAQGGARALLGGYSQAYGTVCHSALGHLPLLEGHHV
Chain of UniProt Q9P289 (whole entry, looked up): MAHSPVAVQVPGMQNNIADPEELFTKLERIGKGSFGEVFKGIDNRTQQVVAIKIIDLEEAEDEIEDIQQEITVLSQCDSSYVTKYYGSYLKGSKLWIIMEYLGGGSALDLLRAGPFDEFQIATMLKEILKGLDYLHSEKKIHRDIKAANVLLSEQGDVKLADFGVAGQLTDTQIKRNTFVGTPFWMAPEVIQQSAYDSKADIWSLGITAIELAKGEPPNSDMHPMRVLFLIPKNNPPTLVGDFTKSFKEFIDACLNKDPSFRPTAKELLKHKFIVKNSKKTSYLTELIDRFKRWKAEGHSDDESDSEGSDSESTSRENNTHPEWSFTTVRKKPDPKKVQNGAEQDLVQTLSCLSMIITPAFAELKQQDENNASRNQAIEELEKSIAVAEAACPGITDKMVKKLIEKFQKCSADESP
Chain of UniProt Q13164 (whole entry, looked up): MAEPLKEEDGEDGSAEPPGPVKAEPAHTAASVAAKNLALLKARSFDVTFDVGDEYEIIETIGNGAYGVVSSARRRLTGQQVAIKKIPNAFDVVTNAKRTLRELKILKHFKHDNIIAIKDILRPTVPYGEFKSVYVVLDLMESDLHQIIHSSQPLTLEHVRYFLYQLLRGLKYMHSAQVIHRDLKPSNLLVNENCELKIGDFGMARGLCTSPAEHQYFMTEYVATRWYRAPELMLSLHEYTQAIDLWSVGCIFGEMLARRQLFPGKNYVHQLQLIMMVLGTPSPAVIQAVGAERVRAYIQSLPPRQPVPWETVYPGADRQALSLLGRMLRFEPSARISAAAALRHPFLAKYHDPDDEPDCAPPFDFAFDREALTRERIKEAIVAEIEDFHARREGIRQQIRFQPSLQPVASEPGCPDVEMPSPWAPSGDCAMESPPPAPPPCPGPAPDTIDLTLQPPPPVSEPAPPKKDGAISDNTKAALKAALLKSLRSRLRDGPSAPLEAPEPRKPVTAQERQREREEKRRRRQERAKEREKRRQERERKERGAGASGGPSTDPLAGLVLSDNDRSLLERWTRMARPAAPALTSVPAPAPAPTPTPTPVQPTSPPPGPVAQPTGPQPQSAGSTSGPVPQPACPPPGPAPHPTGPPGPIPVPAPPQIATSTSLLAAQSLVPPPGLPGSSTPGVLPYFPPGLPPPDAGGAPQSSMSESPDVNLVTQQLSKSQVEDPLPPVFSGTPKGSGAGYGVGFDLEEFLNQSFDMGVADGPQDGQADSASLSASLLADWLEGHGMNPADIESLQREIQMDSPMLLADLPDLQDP

Block 1
Organism: Sarcocystis neurona
Observed: parasite activity
Tested at: 10 µM
Time: 96 h
Under activity class, `C[C@]12C=CC(=O)C=C1CC[C@@H]1[C@@H]2[C@@H](O)C[C@@]2(C)[C@H]1CC[C@]2(O)C(=O)CO` is recorded as “inactive”.
For `O=C1Nc2ccc(Cl)cc2[C@@](C#CC2CC2)(C(F)(F)F)O1`, activity class read “inactive”.
For `Cc1cccc(Nc2ccncc2S(=O)(=O)NC(=O)NC(C)C)c1`, activity class read “inactive”.
For `CC(=O)OCC(CCn1cnc2cnc(N)nc21)COC(C)=O`, activity class read “inactive”.
Under activity class, `CN1[C@@H]2C[C@@H](OC(=O)[C@H](CO)c3ccccc3)C[C@H]1[C@@H]1O[C@@H]12` is recorded as “inactive”.
`C=CC1=C(C(=O)O)N2C(=O)[C@@H](NC(=O)/C(=N\OCC(=O)O)c3csc(N)n3)[C@H]2SC1` — result for activity class: “inactive”.

Block 2
Target: Beta-1 adrenergic receptor (ADRB1, Homo sapiens, UniProt P08588)
Chain of UniProt P08588 (whole entry, looked up): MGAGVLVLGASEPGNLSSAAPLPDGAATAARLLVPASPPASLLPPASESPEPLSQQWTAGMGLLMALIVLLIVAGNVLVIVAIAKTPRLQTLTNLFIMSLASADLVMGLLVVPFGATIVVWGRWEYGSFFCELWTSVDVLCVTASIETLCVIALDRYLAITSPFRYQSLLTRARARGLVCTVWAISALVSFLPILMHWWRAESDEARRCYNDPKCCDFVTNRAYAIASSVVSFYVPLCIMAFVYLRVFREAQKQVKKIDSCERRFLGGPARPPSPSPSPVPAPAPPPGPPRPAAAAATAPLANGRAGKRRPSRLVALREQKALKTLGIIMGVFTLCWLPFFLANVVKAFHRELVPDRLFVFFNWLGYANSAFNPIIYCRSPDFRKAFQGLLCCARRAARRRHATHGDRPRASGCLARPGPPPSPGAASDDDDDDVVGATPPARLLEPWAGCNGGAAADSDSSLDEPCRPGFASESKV
Mode: agonist
For `COc1cc(CNC(C)C)ccc1OCC(O)CN1CCSCC1` (centres unmarked), the EC50 was ≥ 100 µM.
`COc1ccc2c(CSc3nnnn3-c3ccccc3)cc(=O)oc2c1` has an EC50 of ≥ 100 µM.
`Cc1noc2c(-c3cccnc3)cc(-c3cccc(C(F)(F)F)c3)nc12` gave an EC50 of ≥ 100 µM.
The EC50 of `CN(c1ccccc1)c1cc(=O)c2ccnc(NCc3cnccn3)c2o1` is reported as ≥ 100 µM.
With `OC(COc1cccc2[nH]ccc12)Cn1cc(-n2cccc2)cn1` (centres unmarked) the EC50 was ≥ 100 µM.
`OC1(c2nc(Nc3cccc(N4CCOCC4)c3)n[nH]2)CCOCC1` has an EC50 of ≥ 100 µM.

Block 3
Target: Serine/threonine-protein kinase TBK1 (TBK1, Homo sapiens, UniProt Q9UHD2)
Chain of UniProt Q9UHD2 (whole entry, looked up): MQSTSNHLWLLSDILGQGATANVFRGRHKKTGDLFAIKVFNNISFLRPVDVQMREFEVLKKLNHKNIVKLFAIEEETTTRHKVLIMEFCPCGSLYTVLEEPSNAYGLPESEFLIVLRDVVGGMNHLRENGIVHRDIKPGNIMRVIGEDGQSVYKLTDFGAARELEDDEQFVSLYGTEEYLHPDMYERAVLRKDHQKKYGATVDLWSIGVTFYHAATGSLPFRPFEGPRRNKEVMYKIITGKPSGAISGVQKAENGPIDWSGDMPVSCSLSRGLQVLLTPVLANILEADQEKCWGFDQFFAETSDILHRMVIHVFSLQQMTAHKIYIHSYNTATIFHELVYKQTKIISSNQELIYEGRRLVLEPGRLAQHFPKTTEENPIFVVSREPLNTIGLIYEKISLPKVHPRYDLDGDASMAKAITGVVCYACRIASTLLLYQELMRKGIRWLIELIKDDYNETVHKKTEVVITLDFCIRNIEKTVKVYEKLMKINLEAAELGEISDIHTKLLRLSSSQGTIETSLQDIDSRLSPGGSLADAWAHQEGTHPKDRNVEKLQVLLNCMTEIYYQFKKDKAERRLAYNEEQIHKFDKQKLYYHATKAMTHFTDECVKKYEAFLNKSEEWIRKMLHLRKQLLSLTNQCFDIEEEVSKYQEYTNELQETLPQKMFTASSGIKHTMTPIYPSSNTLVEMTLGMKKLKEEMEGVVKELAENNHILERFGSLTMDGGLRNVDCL
Observed: enzyme activity
Mode: inhibitor
Tested at: 0.5 µM
Baseline: control
With `O=C1NC(=O)C(c2cn(CCCn3ccnc3)c3ccccc23)=C1Nc1ccccc1` the remaining activity was 48%.
The remaining activity of `O=C(CCCc1ccc(-c2ccccc2F)cc1)Nc1ccc(O)cc1` is reported as 98.2%.
For `COc1ccc(OC)c2c(=S)c3ccccc3[nH]c12`, the remaining activity was 97.5%.
For `Cc1nc(-c2ccccc2)c(-c2ccncc2)o1`, the remaining activity was 88%.
With `CCOC(=O)c1c(C)[nH]c(/C=C2\C(=O)Nc3ccccc32)c1C` the remaining activity was 70.5%.
The remaining activity of `O=C(O)c1ccc2c3c1cccc3c(=O)n1c3ccccc3nc21` is reported as 20.2%.
`O=c1c2ccccc2[nH]c(=S)n1CCN1CCC(=C(c2ccc(F)cc2)c2ccc(F)cc2)CC1` has a remaining activity of 104%.
With `OCC(O)CCON=C1C(c2c(O)[nH]c3ccccc23)=Nc2ccccc21` (centres unmarked) the remaining activity was 29.9%.
`Cc1ccc(NC(=O)c2ccc(CN3CCN(C)CC3)cc2)cc1Nc1nc(-c2cccnc2)cs1` gave a remaining activity of 97%.
With `COc1ccc(CNC(=O)Nc2ncc([N+](=O)[O-])s2)cc1` the remaining activity was 104%.
With `N#CC(C#N)=C(N)/C(C#N)=C/c1ccc(O)cc1` the remaining activity was 91.1%.
The remaining activity of `Cn1c2ccccc2c2c3c(c4c5ccccc5n(CCC#N)c4c21)CNC3=O` is reported as 72.1%.
The remaining activity of `COc1cc2nccc(Oc3ccc(NC(=S)NC(=O)c4ccccc4C)cc3)c2cc1OC` is reported as 103%.
The remaining activity of `Nc1[nH]nc2nc3ccccc3nc12` is reported as 92%.
`CO[C@H]1C[C@@H]2CC[C@@H](C)[C@@](O)(O2)C(=O)C(=O)N2CCCC[C@H]2C(=O)O[C@H]([C@H](C)C[C@@H]2CC[C@@H](O)[C@H](OC)C2)CC(=O)[C@H](C)/C=C(\C)[C@@H](O)[C@@H](OC)C(=O)[C@H](C)C[C@H](C)/C=C/C=C/C=C/1C` has a remaining activity of 94.7%.

Block 4
SMILES: CC(=O)Nc1c(C(C)=O)c(=O)n(C)c2nc(-c3ccc(Cl)cc3Cl)c(-c3ccc(Cl)cc3)cc12
Observed: cell-free assay
Method: competition with immobilised ligand
Tested at: 1 µM
The remaining binding was 100% (MAPK15 (Homo sapiens, UniProt Q8TD08)).
TBK1 (Homo sapiens, UniProt Q9UHD2) — remaining binding: 81%.
For MTOR (Homo sapiens, UniProt P42345): remaining binding read 100%.
The remaining binding was 100% (MAPK7 (Homo sapiens, UniProt Q13164)).
STK26 (Homo sapiens, UniProt Q9P289) — remaining binding: 87%.

A few entries again (block 1):
Under activity class, `C[C@]12C=CC(=O)C=C1CC[C@@H]1[C@@H]2[C@@H](O)C[C@@]2(C)[C@H]1CC[C@]2(O)C(=O)CO` is recorded as “inactive”.
For `O=C1Nc2ccc(Cl)cc2[C@@](C#CC2CC2)(C(F)(F)F)O1`, activity class read “inactive”.
For `Cc1cccc(Nc2ccncc2S(=O)(=O)NC(=O)NC(C)C)c1`, activity class read “inactive”.
